Results gathered from unrelated publications.
A part holds a random share of what one study measured. Positions count from the first letter of the parent shown.

Set 1 — target: CCNA2, cyclin fold, Cln2 fusion (human); technique: yeast growth competition, sequencing; matrix: yeast; notes: strong parent motif; reference: not given; reading: higher = stronger binding; quantity: normalised enrichment score; parent: viral docking peptide; YKVKRRLVFGADD
YKVKRRLSFGADD [V8S]: 6.28
YKVKRRLVFGAQD [D12Q]: 6.41
YKVKRRLQFGADD [V8Q]: 6.51
YKVKRMLVFGADD [R6M]: 6.16
YKVKRRLFFGADD [V8F]: 6.31
YKVKRRLVFCADD [G10C]: 6.04
YKVKRRLVFGARD [D12R]: 5.8
YKFKRRLVFGADD [V3F]: 5.9
AKVKRRLVFGADD [Y1A]: 6.65
YKHKRRLVFGADD [V3H]: 4.2
YKVKRGLVFGADD [R6G]: 3.52
YKVKRRLVVGADD [F9V]: 1.04
YKVARRLVFGADD [K4A]: 4.71
YKVKRSLVFGADD [R6S]: 5.34
YPVKRRLVFGADD [K2P]: 5.81

Set 2 — technique: competition protein-binding microarray; form: double-stranded DNA, one strand shown; matrix: in vitro; concentration: 2 µM; added: Pho4 competitor, 0.05 µM; reading: higher = stronger binding; quantity: fluorescence intensity
Target: Centromere-binding protein 1, full length, His-tagged (CBF1, Saccharomyces cerevisiae, UniProt P17106, residues 1-351)
Sequence of UniProt P17106 (whole entry, looked up): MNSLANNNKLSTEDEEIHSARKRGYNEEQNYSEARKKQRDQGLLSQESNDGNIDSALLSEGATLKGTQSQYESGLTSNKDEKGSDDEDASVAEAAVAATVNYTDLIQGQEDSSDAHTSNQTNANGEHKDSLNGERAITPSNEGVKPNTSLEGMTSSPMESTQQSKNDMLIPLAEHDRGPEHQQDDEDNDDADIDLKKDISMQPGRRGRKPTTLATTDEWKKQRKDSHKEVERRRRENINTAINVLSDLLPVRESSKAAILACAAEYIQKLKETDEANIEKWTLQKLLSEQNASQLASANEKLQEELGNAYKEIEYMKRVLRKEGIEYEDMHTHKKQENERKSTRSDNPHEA
Notes: whole 60-bp probe, lowest competitor level
CTTTCCCGATCTTCTCACGTGTTTTTAGCACATTTGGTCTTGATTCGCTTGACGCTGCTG: 1330 a.u.
TTCCAGAAATTGGTGTTTGTGATGCTTGATGCTCTCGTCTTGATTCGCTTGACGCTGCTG: 64.5 a.u.
AGTTTTCCTTAGCACAGCATGACAATAACCGGGAATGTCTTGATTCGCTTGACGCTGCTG: 83.8 a.u.
CGATGTATCTTCCGTCACCTGCACCACCACAATTGAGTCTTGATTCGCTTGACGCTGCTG: 147 a.u.
CTCACAGATCTTCAACACGTGAAGATCGGTTGCATTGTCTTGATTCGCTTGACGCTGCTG: 876 a.u.
CGGGGTTAAGTTTGGATGGTGGGTGGCTTGCAGCAGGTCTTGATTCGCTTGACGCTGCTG: 47.8 a.u.
GTCTTATCTTTAGTGTGCGTGCAAACTGACTCATCGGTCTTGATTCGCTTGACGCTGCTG: 102 a.u.
GTCTTGTCTCATTGTTTGGTGGGTGTCCCCACTTCAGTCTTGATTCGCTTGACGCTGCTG: 85.4 a.u.

Set 3 — target: tungstate, free oxyanion; technique: microfluidic competitive inhibition; matrix: in vitro, cell-free expressed; concentration: not given; reading: lower = stronger binding; quantity: oxyanion analog dissociation constant
Notes: derived from inhibition constants, unchanged parent 2230 nM
Parent: PafA, mature enzyme, eGFP fusion (Elizabethkingia meningoseptica, UniProt Q9KJX5); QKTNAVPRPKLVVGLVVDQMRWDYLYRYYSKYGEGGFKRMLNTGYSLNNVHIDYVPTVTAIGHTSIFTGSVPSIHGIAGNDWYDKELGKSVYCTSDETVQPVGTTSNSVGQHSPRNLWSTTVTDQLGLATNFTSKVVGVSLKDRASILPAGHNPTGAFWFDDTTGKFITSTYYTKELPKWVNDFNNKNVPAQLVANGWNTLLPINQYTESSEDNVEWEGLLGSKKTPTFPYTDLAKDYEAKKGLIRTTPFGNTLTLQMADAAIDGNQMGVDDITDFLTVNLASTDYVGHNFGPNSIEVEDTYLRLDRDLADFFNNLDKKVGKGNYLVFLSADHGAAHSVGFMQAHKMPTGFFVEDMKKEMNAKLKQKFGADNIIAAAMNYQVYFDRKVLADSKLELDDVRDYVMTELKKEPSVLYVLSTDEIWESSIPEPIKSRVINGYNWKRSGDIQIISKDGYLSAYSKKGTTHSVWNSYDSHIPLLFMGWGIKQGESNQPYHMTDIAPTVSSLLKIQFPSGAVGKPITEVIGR
R304V: 1890 nM
V503G: 1750 nM
P227V: 3110 nM
G35A: 2250 nM
Q192G: 1990 nM
D143G: 4840 nM
P493V: 2260 nM
W423V: 2160 nM
G14A: 2830 nM
D260G: 2180 nM
I436V: 2110 nM

Set 4 — effect on: binding; technique: phage display NGS; form: peptide; concentration: concentration not given; reference: input library; quantity: enrichment fold change
Target: UDP-N-acetylglucosamine--peptide N-acetylglucosaminyltransferase 110 kDa subunit (OGT, Homo sapiens, UniProt O15294)
Sequence of UniProt O15294 (whole entry, looked up): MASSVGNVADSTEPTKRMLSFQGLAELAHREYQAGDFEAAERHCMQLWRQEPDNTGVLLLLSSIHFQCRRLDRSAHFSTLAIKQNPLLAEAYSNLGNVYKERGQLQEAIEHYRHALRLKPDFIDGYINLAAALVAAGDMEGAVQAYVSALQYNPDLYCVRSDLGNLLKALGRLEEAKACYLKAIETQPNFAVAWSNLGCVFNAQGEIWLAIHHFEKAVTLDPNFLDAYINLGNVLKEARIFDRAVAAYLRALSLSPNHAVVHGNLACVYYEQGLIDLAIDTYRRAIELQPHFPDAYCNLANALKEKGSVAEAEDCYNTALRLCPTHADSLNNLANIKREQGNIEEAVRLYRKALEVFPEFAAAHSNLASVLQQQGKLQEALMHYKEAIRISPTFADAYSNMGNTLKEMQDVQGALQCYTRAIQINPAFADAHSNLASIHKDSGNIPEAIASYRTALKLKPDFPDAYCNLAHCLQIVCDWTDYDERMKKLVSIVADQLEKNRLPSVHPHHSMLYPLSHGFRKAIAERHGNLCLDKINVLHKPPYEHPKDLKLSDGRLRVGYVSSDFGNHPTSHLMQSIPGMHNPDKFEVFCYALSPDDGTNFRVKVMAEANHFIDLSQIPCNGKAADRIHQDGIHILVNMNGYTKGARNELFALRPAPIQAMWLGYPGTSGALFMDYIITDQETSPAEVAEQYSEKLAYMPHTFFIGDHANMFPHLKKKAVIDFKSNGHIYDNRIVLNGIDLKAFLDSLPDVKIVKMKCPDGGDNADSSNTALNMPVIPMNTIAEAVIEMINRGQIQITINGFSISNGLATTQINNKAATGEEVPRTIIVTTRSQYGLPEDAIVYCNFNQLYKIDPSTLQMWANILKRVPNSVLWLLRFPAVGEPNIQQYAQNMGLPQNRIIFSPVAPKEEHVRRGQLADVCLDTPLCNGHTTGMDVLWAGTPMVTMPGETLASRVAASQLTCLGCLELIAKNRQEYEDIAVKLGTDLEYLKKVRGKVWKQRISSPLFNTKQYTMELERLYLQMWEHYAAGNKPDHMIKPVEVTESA
RFMPVYQMNVPEIDV: 2.2
SMVHGVHTIEHHHYQ: 4.03
SWQPYQHHIWRMTYP: 4.96
YTTHKHHNTTNFVAV: 5.84
YATPWTPQYQIMYN: 22.2
ASQYDFMPAYRIDVG: 9.3
WTGIHHPWSVPHGRP: 7.39
SYVHSHAMHPYHSQH: 3.35
HQHKLTPMFKHHGAM: 2.58
SVMHHHHSATTYLG: 6.95
RFFQPAYQIMPQSYR: 1.7
EPYIGPHHMHHYEHS: 61.8
TMYEPMYQIKVIAHG: 19.3
WPGHSHNNYAHHTGH: 6.04
TLHQQFYPPMYFIKV: 9.68
HQLDQRRGHVHGHME: 4.96
QEHQYYRPKYLIEIY: 2.47
VPWQHVHTAHNRWHS: 2.95
QQYFLPMYQIQFRNM: 27.9
HFVHRQDNGFMKHT: 4.97
FNHRNHHEPHRHHNA: 7.78
MLETTPHHHQRPYAI: 2.75
HPMIDRHKHTPWNKH: 4.24
QQPRYYPQYQMRYKV: 9.31
YFTTPMYQIYYERA: 13.5

Excerpt of the above (set 1):
YKVKRGLVFGADD [R6G]: 3.52
YKVKRRLVVGADD [F9V]: 1.04
AKVKRRLVFGADD [Y1A]: 6.65
YKVKRRLQFGADD [V8Q]: 6.51
YPVKRRLVFGADD [K2P]: 5.81
YKVKRSLVFGADD [R6S]: 5.34
YKVKRRLFFGADD [V8F]: 6.31
YKHKRRLVFGADD [V3H]: 4.2
